Measurements of several laboratories.
Numbered parts are unrelated; each lists some results of a single study.

Set 1
Target: RNA binding protein fox-1 homolog 2, RRM domain, GST-SBP tag (RBFOX2, Homo sapiens, UniProt O43251-10, residues 100-194)
Method: RNA Bind-n-Seq
Molecule type: RNA
Matrix: in vitro
Concentration: 365 nM
Setting: natural RNA segment, single round, ends assumed
Relative to: no-protein control
Reading: higher = stronger binding
Constant ends, left off below: GGGAGUUCUACAGUCCGACGAUC … UGGAAUUCUCGGGUGCCAA
Residues (chain): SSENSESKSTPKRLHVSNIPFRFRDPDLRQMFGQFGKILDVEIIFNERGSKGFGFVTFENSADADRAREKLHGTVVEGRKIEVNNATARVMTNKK
Strand	RBNS enrichment (R)
UCAGGUACAUUAAUUGCAUAUUAUUUUGGGAAAGAUGAGUCCUAUACGUGGCAAUUUUUCAAUGUCAUCUGAAGCCAGCAUUAUCUUCCAAAGAAAUCGAUCUUUUUUUU	1.11
GAUGCAUUCUUAUUGAAUACUAUCUUGGGUUUACCGUAUUUCCGACACACGAUAGUAAGGAGCAUUUAGCAAUGAUGGAAAGGAUUCUUGGACCUCUACCAAAACAUAUG	0.457
AAAAACCGAAUAACCAAGCAGCGCGUCUGCUCUUUCCCUGAUUCGCAUGUGACUGUGAUGCUUUCCAGUCACAUUCAUCACGCACUCAGACCUGUGGCCUGGUGGGACCA	0.383
UUAACUGUCGUGUGGCUCGUUGCUAAAUCAUGACAAUGGCUGCCUAUCUGCUGCUUCUUAGGUUGCUGUUGUACAUGGAACCAGGACUAGAGAUUUUUUCAGAUUUAUAG	0.516
AAGAGAGCUAGACAGCAGCAUUACCCACUCUGAAGUUUUCUACAAGAGAGUUGAGUGAAUCUGUUUACAUUUAGGAUAAUGUUUUUUUCUUCAAAAGACGCAAUUGCAAU	0.312
UGAUUCUGUACAGGAGUGCUCCUAAUCGCCACUGCACCCUAAUUGCUGAGUCAUGUGCUGAGCUACUUGUAGUGGUCACUGUACACGUGGGGCUCGGGAGGGAAGAGAGC	0.436
UGAUGCCCAUGGGAGGUGGCAUUUGCUUUGGGCAGAGCAGCCUACAGGAAACAUUUCUCUUGUAAUUUAAGAAAGUUAAGUCUAUAAACCAGCAUCAAGUGAUGUCUAGC	0.553
UCAGAGCAAAGUGAUCCAGAAUGCAACAGGAGCUACCUCCUGUAACCACUACAAUGUCUGUCCUUGGGAAGGUAGCAAGACCUGAAGAUUGGAGAUGUCAGGGUCCAUAA	8.99

Set 2
Target: Prothrombin, mature alpha-thrombin (F2, Homo sapiens, UniProt P00734)
Method: aptamer microarray, sandwich
Molecule type: DNA with 2'F-ANA
Matrix: in vitro
Concentration: 200 nM
Setting: whole 15-mer aptamer, many near background
Together with: Cy3 exosite-II aptamer, 400 nM
Reading: higher = stronger binding
Strand: GGTTGGTGTGGTTGG
Modification	mean fluorescence intensity [a.u.]
2'F-ANA at 1 3 6 7 9 10 12 14	66.7
2'F-ANA at 4 5 9 10 12 13 14	45.9
2'F-ANA at 5 8 10 11 13 15	52.4
2'F-ANA at 3 5 6 8 9 12	297
2'F-ANA at 1 3 4 5 7 13	49.9
2'F-ANA at 1 4 5 6 7 10 12	64.6
2'F-ANA at 1 2 3 4 7 8 9 10 11 13	57.5
2'F-ANA at 2 5 6 7 10 11 12 14	49.6

Set 3
Target: PABPC1L2, full length, GST fusion (mouse, UniProt A0ABA7IW68)
Method: RNAcompete
Molecule type: RNA
Matrix: in vitro
Concentration: 20 nM
Setting: 7-mer, probes averaged, single round
Relative to: mean of 7-mers
Reading: higher = stronger binding
Target sequence (chain): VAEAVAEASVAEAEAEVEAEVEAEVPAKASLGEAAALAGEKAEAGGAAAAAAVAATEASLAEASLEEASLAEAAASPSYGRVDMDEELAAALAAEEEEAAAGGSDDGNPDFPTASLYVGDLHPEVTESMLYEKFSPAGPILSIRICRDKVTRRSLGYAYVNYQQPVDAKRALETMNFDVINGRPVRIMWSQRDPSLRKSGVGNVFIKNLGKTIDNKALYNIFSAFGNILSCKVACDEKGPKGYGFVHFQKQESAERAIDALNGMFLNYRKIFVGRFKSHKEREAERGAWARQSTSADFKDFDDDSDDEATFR
Strand	7-mer Z-score
UUGGUCA	-0.108
AGGAGUU	-0.0863
CGUAUUA	-0.253
UGAUAAG	-0.166
UAUUGAU	-0.273
AUAGCCA	-0.0101
AUAUCUA	-0.0953
GGUACAU	-0.0518

Further values, each from its own experiment
Sequence	target	assay	test system	setting	measurement	value
KEGKLQCRI	HLA class I histocompatibility antigen, A alpha chain, allele A*80:01 (Homo sapiens, UniProt P04439)	peptide-MHC binding	peptide	concentration not given	binding	inactive

Repeated from above (set 3):
Strand	7-mer Z-score
UUGGUCA	-0.108
UGAUAAG	-0.166
AGGAGUU	-0.0863
